Assay results pooled from the literature.
Every numbered part comes from another study and shows a few of its results, in no order. Changes are numbered by the printed parent chain.

Block 1 — technique: RNA Bind-n-Seq; molecule type: RNA; medium: in vitro; concentration: 200 nM; setting: whole 134-nt RNA, ends assumed; added: 150 mM KCl; baseline: input library; reading: higher = stronger binding
Target: Fragile X messenger ribonucleoprotein 1, C-terminal low-complexity region (Fmr1, Mus musculus, UniProt P35922)
All sequences stand within: GGGAGUUCUACAGUCCGACGAUC … UGGAAUUCUCGGGUGUCAAGG
Strand	log2 enrichment
CACAAAAAACACGCACCCACACAGACACAGAGGGAAGGGGUUGGGAUGGGGACAGGGUGCACAGCAGGGCGGGGUAGGACCCCAGCCCCU	1.33
UUUCACAGAGAAGCAAAUGCUGGCACAAGGAUACCCUGCUUACACGACAUCGUGCGCCUGGCUGGGGUACUCAGAUGACACGUUGAAGCA	-0.375
AAAAUGCAGGUGGGCAUCUUUGGGAAGUGGGGCAAGGGGGGGAUAGGGAGGGGGGUAACACUUUGGGAACAGGUGGUCCCAGGUCGUUUC	0.863
CUCAAGUCCUGUGCUACACAUCGUAUGUACCGAAUCGGGUUGGUUGGGGUUGGGAAAGUAUUAUGUUACGCCGUUCGGAUCUGCACUUCC	0.938
UUGGAUGAAGAUGGCAAAGUCCUGACCCCGGAGGAGCUGCUCUACCGGGUAAGGGGGCCUCCUCUGCCAGACCCUAGAGACCUCUCUGGG	-0.988
UCAAGUCCUGUGCUACACAUCGUAUGUACCGAAUCGGAAGGGGAAGGGAAGGGGAAAGUAUUAUGUUACGCCGUUCGGAUCUGCACUUCC	0.96
CACAGACAACACGCACCCACACAGACACAGAGGGAAGGGGUUGGGAUGGGGACAGGGUGCACAGCAGGGCGGGAUAGGACCCCAGCCCCU	1.3
AGUCCUGUGCUACACAUCGUAUGUACCGAAUCGGGUUUUUGGGUUUGGGUUUUUGGGAAAGUAUUAUGUUACGCCGUUCGGAUCUGCACU	0.322
UGGGAGGUGGAUUUUGUUUAUUUUUUUAGCUCAUUUCCAGGGGUCGGAAUUUUUUUUUAAUAUGUGUCAUGAAUAAAGUUGUUUUUGAAA	0.199
UGGCCCUGGUGGCAUGCGGGGAGGUAGAGGUGGCCUCAUGGAUCGUGGUGGUCCCGGUGGAAUGUUCAGAGGUGGCCGUGGUGGAGACAG	0.218
UCCUCAAGUCCUGUGCUACACAUCGUAUGUACCGAAUCGGAAAGGUGGUGGAAAGUAUUAUGUUACGCCGUUCGGAUCUGCACUUCCAGC	-0.302
UAGAUAUCCAUAGAAAAGAGAACUCUGGAGCUGCAGAGAAGCCUGUCACCAUCCAUGCCACCCCAGAGGGGACUUCUGAAGCAUGCCGCA	-0.744
UCAAGUCCUGUGCUACACAUCGUAUGUACCGAAUCGGGAAAGGGAAAGGGAGGGAAAGUAUUAUGUUACGCCGUUCGGAUCUGCACUUCC	0.876
CCUCAAGUCCUGUGCUACACAUCGUAUGUACCGAAUCGGGGCGGGCGGCGGGGAAAGUAUUAUGUUACGCCGUUCGGAUCUGCACUUCCA	0.96

Block 2 — target: NFE2L3, bZIP domain (human); technique: DHFR protein complementation; medium: yeast; baseline: wild-type JUN-FOS pair; reading: higher = stronger binding
Setting: single substitutions, most at no-binding floor
Parent: JUN, bZIP domain (human); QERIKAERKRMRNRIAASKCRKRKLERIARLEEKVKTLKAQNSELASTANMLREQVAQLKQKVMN; partner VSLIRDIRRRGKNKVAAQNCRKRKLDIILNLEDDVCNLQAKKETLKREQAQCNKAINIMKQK
Variant	binding fitness [natural log]
A57N	-1.28
S47I	-1.43
A40F	-1.3
R30W	-1.56
L59G	-1.54
K36T	-1.58
K39W	-1.52
R53A	-1.57
S47K	-1.13
L52F	-1.47
E32V	-1.39
V56R	-1.51
L31E	-1.37
R30T	-1.45
T48Q	-1.49
A46G	-1.44
K34Q	-1.49
L38R	-1.56
K39C	-1.48
T37Y	-1.44
E54I	-1.64
S43C	-1.24
A29S	-1.53
K39P	-1.43
V35C	-1.26

Block 3 — technique: universal PBM; molecule type: double-stranded DNA, one strand shown; medium: in vitro; concentration: 600 nM; reading: higher = stronger binding
Target: Sal-like protein 4, full length isoform A (SALL4, Homo sapiens, UniProt Q9UJQ4, residues 1-1053)
UniProt Q9UJQ4, sequence (whole entry, looked up): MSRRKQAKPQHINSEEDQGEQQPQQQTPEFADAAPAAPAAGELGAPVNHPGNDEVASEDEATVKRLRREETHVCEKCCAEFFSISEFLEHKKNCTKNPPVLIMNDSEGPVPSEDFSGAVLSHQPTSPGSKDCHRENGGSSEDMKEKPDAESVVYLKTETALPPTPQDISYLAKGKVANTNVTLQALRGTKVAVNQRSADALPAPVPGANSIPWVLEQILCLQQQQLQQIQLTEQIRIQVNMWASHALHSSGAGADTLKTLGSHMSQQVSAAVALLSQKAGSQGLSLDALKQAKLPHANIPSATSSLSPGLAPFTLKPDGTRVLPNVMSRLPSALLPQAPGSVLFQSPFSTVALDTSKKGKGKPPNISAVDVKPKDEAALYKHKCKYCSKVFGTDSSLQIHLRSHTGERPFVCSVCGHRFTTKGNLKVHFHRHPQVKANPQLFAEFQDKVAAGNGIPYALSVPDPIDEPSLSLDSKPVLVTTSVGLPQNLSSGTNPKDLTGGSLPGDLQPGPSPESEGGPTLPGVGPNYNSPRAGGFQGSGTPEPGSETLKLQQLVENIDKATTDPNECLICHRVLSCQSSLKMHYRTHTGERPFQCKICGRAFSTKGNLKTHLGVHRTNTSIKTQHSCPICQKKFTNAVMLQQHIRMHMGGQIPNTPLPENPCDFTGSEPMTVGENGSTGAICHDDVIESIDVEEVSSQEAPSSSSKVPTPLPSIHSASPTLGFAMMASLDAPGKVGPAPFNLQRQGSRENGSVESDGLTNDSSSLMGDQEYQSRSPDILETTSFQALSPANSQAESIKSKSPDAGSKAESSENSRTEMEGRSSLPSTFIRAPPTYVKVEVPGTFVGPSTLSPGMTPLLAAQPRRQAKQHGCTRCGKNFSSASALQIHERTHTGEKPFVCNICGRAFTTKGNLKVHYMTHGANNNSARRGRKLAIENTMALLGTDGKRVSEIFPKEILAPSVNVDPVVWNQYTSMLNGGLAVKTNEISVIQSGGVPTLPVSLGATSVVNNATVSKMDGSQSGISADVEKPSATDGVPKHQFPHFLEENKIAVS
Setting: 8-mer, flanks averaged, mean of replicates
Strand	E-score
AACGGAGG	-0.226
CGGCGCGC	-0.253
CGTGTTGC	-0.119
CCTTGGCA	-0.133
GTGTGTAA	0.118
CACGTTAG	-0.0364
CTCAGTAC	-0.0325
CAACTAAG	-0.00218
AAGTGTTC	0.0142
GTTTAAGA	-0.0718
TAGTTCAA	0.0376
CTCCAGCA	-0.0641
CTCGGCTC	-0.3
GCGATTGA	-0.0667
CTGTAGGC	-0.0611
AAAGAATC	0.0752

Block 4 — target: CCND3, cyclin fold, Cln2 fusion (human); technique: yeast growth competition, sequencing; medium: yeast; setting: weak parent motif; baseline: not given; reading: higher = stronger binding
Parent: PKN2 docking peptide (human); VSAVRKLDFSDTM; partner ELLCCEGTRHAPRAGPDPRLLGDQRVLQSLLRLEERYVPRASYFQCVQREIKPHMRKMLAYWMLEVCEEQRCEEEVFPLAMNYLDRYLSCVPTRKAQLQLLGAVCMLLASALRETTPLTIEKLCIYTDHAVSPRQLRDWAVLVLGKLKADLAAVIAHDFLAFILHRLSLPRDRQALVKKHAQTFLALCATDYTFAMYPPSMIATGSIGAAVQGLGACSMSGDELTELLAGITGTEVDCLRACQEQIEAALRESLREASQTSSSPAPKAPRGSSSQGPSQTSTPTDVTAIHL
Variant	normalised enrichment score
A3C	0.545
T12P	1.01
R5A	0.056
D11A	0.751
D8F	0.244
D8L	-0.152
L7G	0.141
A3F	-0.219
R5I	0.138
T12E	1.51
L7Y	0.0386
T12A	1.18
K6V	0.459
L7V	0.0533
S2L	0.38
D11W	-0.221

Block 5 — technique: RNA Bind-n-Seq; molecule type: RNA; medium: in vitro; concentration: 365 nM; baseline: no-protein control; reading: higher = stronger binding
Target: RNA binding protein fox-1 homolog 2, RRM domain, GST-SBP tag (RBFOX2, Homo sapiens, UniProt O43251-10, residues 100-194)
Setting: natural RNA segment, single round, ends assumed
All sequences stand within: GGGAGUUCUACAGUCCGACGAUC … UGGAAUUCUCGGGUGCCAA
Target sequence (chain): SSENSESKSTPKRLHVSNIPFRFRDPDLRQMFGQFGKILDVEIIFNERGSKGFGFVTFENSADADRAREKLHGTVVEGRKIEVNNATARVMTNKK
Strand	RBNS enrichment (R)
AUUCCCAAGGUACAUACUUUGACUUAAAUGUGGGAUAACUCAGCACUAAUGGGCAGGUAAAGUCACAACUGUGGUUAUUUUGGUUUUGUUUUGGUUUUUGGUUUUUUUAU	0.935
CAUUCGAGGCGGCCUCAGGAGUGGAUGCGAUCUGUCUCUCCUGGCUCCACUCUUGCCGCCUUCCAGCUCUGAGUCUUGGGAAUGUUGUUACCCUUGGAAGAUAAAGCUGG	0.574
ACUUGCCCCGUGACUUCAGUUUUCUAUAGGAAUUUUAUUAAAGAGUGUUUAAUUUUGUUGUCCUUCUUAAUGUUCUCAGUCAAAUAAAUGGGUGGUUUCAUCUGUUUGGG	0.604
CUGAGCAGCUAUGCAGGUUGACUGCCCACAGGCAUGUGGAAACUUGGUUCUCAGCACUUGGCAGGAUCUAUGGCAUAAGUGGAGAGGGAAGGUGUACUGGACGGCGGAGA	1.53
CCAUUUAGGCCUGACUGGGGUAAGAAAUGUCGCUCCACUUUACAGAGGUAGCUGUGGUGUUGAAACACUGGACUUGGAUAUGGGGUGCUGGGAUCGAUUCCUAGCUUUAC	0.568
CCCAUUGCUGGUAGACAAUUUUCAUCUCUGCUGGUGGUGGCCUCUUGUUGACUCUGAAACUUGUCACCUUGUCACCAGCUAGAUGUCAAGACUUGGCUGCCCUCUGAUGU	0.372
UUGUUUGGAAAAUAAGAGCCAAUUUUUCUUAGAAUAUAUAUGUAUAUUAAAUGAGCAUUUGACCUGUAGAUACAUAGUGUGCCGUUUGGCCAGAGCUCCUGGUGUCAAAU	0.696
GAAGUCCUUUUGCCUGCCGGGGAGCAAGCAAGGCCAGGGCACGGGGGCACAUUGGCUCACUUCCAGAAACACGACAAACCCAUUCCUGGCCCUGAGUCAAGAGGACAGAG	0.53
AGAGCAGACUUUCAGCAGAGACUGUCCAGUGAGUCAUUGAAGACUUGUCAGACCAUCAAUCUCUUGGGGUGAUUAAUCAAAUUACCCACCCAAGGCUUCUAGAAGGAGCU	0.249
CUGUGGCGUGGCCAGGCCGGGGCAUGGCUCUUACCCGGGGAGUGGUGGGCAUCUCGAUGCUUCUUUGCCUUAAUGAUGGCCACAUCUGGGCUGCUCUGCACCCACGGGAG	0.36
UAAAGAUCAAAUUAUUUGAUUAUUGCUAGACAUUUCUAUACUCUGUUGUAACACUGAGGUAUCUCAUUUGCUCAUGUUAAUUUUUUUCUAAAUAAAUGGACAAAAAAUGA	0.309
UUUUACCAAACAGUAUUUACUCGUGAUGUGCGUAGUGCAUUCUGAUAUUUUUGAGCCAUUCUAUUGUGUUCUACUUCACCUAAAAAAAUAAAAUAAAAAUGUUGAUCAAG	0.419

Block 6 — technique: DHFR PCA, deep sequencing; medium: yeast; added: (+)-ABA 0.032 µM; baseline: wild-type fitted maximum; reading: higher = stronger binding
Target: ABI1, truncated, D143A, DHFR fusion (Arabidopsis thaliana)
Setting: methotrexate growth selection, single substitutions
Parent: PYL1, truncated, DHFR fusion (Arabidopsis thaliana); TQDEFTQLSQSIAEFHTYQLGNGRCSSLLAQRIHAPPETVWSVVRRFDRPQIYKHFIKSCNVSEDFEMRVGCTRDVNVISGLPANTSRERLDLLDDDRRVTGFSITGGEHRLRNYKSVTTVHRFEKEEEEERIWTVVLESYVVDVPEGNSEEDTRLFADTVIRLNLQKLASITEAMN; partner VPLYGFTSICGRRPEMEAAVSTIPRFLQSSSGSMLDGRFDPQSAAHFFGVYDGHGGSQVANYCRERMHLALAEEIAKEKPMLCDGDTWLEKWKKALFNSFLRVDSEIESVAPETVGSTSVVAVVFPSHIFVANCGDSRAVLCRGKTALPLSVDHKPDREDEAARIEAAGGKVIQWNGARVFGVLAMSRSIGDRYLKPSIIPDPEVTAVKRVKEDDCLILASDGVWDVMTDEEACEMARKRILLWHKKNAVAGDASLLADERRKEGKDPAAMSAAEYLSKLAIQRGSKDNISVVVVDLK
Variant	relative binding score [%]
I172R	-1.26
E127R	35.2
E174H	-6.8
T6Y	30.2
K54C	-2.55
G71H	1.81
R111N	6.66
D95S	-2.37
P37M	-4.64
T120N	0.611
T160I	-3.84
C25T	44.7
H122I	0.295
T119D	1.86
N149A	44.3
Q167C	1.53
L29C	8.08
R111S	5.59
F15W	27.9
T73M	36.3
L164M	18.4

Repeated from above (block 2):
Variant	binding fitness [natural log]
V56R	-1.51
L31E	-1.37
R30T	-1.45
T48Q	-1.49
A46G	-1.44
K34Q	-1.49
L38R	-1.56
K39C	-1.48
T37Y	-1.44
E54I	-1.64
S43C	-1.24
